Assay results collected from several papers.
Every numbered part comes from another study and shows a few of its results, in no order.

Set 1 — technique: aptamer microarray, sandwich; form: DNA with 2'F-ANA; medium: in vitro; concentration: 200 nM; together with: Cy3 exosite-II aptamer, 400 nM; direction: higher = stronger binding; strand: GGTTGGTGTGGTTGG
Target: Prothrombin, mature alpha-thrombin (F2, Homo sapiens, UniProt P00734)
Setting: whole 15-mer aptamer, many near background
Under “mean fluorescence intensity”, `2'F-ANA at 2 5 7 9 10 13 14` is recorded as 47.1 a.u.
`2'F-ANA at 1 2 6 12 13 15`: “mean fluorescence intensity” 241 a.u.
`2'F-ANA at 1 2 8 11 13 14 15` — result for “mean fluorescence intensity”: 57.7 a.u.
`2'F-ANA at 1 5 9 11 12 14` — result for “mean fluorescence intensity”: 44.5 a.u.
`2'F-ANA at 1 5 6 8 9 10 12 14` — result for “mean fluorescence intensity”: 45.1 a.u.
`2'F-ANA at 1 3 4 6 7 9 10`: “mean fluorescence intensity” 64.8 a.u.
For `2'F-ANA at 1 3 4 6 7 10 11 14 15`, “mean fluorescence intensity” read 64.2 a.u.
Under “mean fluorescence intensity”, `2'F-ANA at 2 4 10 11` is recorded as 136 a.u.
Under “mean fluorescence intensity”, `2'F-ANA at 2 4 6 7 8 11 15` is recorded as 221 a.u.
Under “mean fluorescence intensity”, `2'F-ANA at 2 6 8 9 13 15` is recorded as 270 a.u.
`2'F-ANA at 1 2 4 5 6 10 12 13`: “mean fluorescence intensity” 47.7 a.u.
Under “mean fluorescence intensity”, `2'F-ANA at 1 4 5 8 10 15` is recorded as 44.9 a.u.
`2'F-ANA at 5 8 9 14 15` — result for “mean fluorescence intensity”: 92.1 a.u.
`2'F-ANA at 2 3 5 7 8 9 13 15` — result for “mean fluorescence intensity”: 76 a.u.
For `2'F-ANA at 2 3 4 10 12 13 14 15`, “mean fluorescence intensity” read 185 a.u.
Under “mean fluorescence intensity”, `2'F-ANA at 5 8 9 10 13 14 15` is recorded as 45.9 a.u.
For `2'F-ANA at 1 2 3 4 8 10 11 14 15`, “mean fluorescence intensity” read 67.1 a.u.
Under “mean fluorescence intensity”, `2'F-ANA at 1 2 3 4 6 7 9 11 12 15` is recorded as 224 a.u.
Under “mean fluorescence intensity”, `2'F-ANA at 1 2 3 9 10 12 13 15` is recorded as 93.7 a.u.
`2'F-ANA at 1 2 7 8 12 13`: “mean fluorescence intensity” 392 a.u.
`2'F-ANA at 1 3 4 5 6 9 10 11 12 14` — result for “mean fluorescence intensity”: 49.1 a.u.
Under “mean fluorescence intensity”, `2'F-ANA at 3 4 6 7 9 10 12 15` is recorded as 271 a.u.

Set 2 — technique: protein binding microarray; form: double-stranded DNA, one strand shown; medium: in vitro; concentration: not given; reference: not given; direction: higher = stronger binding
Target: Histone acetyltransferase KAT6A, both winged helices, GST fusion (KAT6A, Homo sapiens, UniProt Q92794, residues 1-181)
Setting: 8-mer, flanks averaged, mean of 2 arrays, mostly near background
Residues (chain): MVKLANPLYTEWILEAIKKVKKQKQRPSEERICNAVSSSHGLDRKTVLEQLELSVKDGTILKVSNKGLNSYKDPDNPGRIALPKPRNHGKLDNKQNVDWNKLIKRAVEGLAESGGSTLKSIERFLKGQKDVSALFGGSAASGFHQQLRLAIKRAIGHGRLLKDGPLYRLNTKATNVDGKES
`ACATGGAG` gave an E-score of -0.0983.
With `CCGAGAAG` the E-score was 0.125.
With `CGGTAAAA` the E-score was 0.162.
For `CATCGGGA`, the E-score was 0.0347.
With `ATACTAGA` the E-score was -0.085.
`AATTTATA` has an E-score of -0.0152.
`CACGGCCA` gave an E-score of 0.128.
The E-score of `TCTGGACA` is reported as -0.0747.
With `ATTTGCTC` the E-score was -0.139.
`AAGCTACA` gave an E-score of -0.0865.
With `AAACCTGG` the E-score was -0.0674.
`ATCAGCTG` gave an E-score of -0.0438.
`ATCGTGTA` gave an E-score of -0.13.
With `CAAGTCTG` the E-score was -0.173.
`CCAGATAG` has an E-score of -0.322.
For `AGTTGACG`, the E-score was 0.057.
`ACGGGACG` gave an E-score of 0.241.
`AGAAACAA` has an E-score of -0.0696.
`AATGATAA` gave an E-score of -0.0507.
`CACTAGAG` gave an E-score of -0.0946.
`CTGGATGA` gave an E-score of -0.156.
The E-score of `ACGCAGCA` is reported as 0.0925.

Set 3 — technique: RNA Bind-n-Seq; form: RNA; medium: in vitro; concentration: 365 nM; reference: no-protein control; direction: higher = stronger binding
Target: RNA binding protein fox-1 homolog 2, RRM domain, GST-SBP tag (RBFOX2, Homo sapiens, UniProt O43251-10, residues 100-194)
Setting: natural RNA segment, single round, ends assumed
Construct (chain): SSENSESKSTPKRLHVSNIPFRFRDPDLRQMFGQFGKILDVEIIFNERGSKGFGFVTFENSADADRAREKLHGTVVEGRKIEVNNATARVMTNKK
`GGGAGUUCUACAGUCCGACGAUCGGCUCAGGCCUUGGACAGUCCAACAUUAAAGUCAACAUGCUGAUCUCUCCAUUCCUGGUUCAGGGUUAGGGUCCUGAGAGGCUGGCUCGGCACUACUCCGAGGGUCCCUCUGGAAUUCUCGGGUGCCAA`: “RBNS enrichment (R)” 0.229.
Under “RBNS enrichment (R)”, `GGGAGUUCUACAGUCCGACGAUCUUAGCACAGUAUAACUUCAUUUUAGGUGUUGGUGAAAAAGAGAAAAUCAGUGGCACUGUUAAUAUCCGCACAAGAGACAAUAAGGUCCACGGGGAACGCACCAUUUCUGAUGGAAUUCUCGGGUGCCAA` is recorded as 0.891.
`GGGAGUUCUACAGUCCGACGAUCGAAAAAUGCAGAGAAUCAGCCAAACCUUUGUCUCUCUGUAUUUUGGCAACAUGAACUGGGAAACAGAGCUCUCUCUGCCUAGAGAAAGGAGCGGCCCUCAAGAUCUCUUUUGGAAUUCUCGGGUGCCAA`: “RBNS enrichment (R)” 0.21.
For `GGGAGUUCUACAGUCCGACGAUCCAGAUGGACGUGGUGCACGCCAACGCAGUGUCCCCUCCUAUGGUUAAUAUACUUUCGUUCCAUGGUGUGCAGGUUUUCUUUUACUUCAGUGUUAUGAUCUCUUCCAGCUGUGGAAUUCUCGGGUGCCAA`, “RBNS enrichment (R)” read 0.255.
`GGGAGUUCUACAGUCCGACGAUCUUUAUUUUAAAAAUAAUGCAUGUGCACUUUAGAAAUUUUUGAAAAUAAAGAUACAUGAAAGAAAGUUAUAUAAUUUUUCUGCAACAAUAACUGUGCUUGCUAAAGUGAUGUGGAAUUCUCGGGUGCCAA` — result for “RBNS enrichment (R)”: 66.1.
Under “RBNS enrichment (R)”, `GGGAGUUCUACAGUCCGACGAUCUGGGGAAAAAAAUGUUCUCGACUGAUACUUGUAUAUCGGGUGCAUUUAAUGGCAGUCACAACUCUGAAACCUUUUGUUCGUGCCGGCUUCAGGUCAAUGUGUUUAUGUGAUGGAAUUCUCGGGUGCCAA` is recorded as 0.505.
Under “RBNS enrichment (R)”, `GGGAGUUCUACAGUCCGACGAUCGUCUUGGGGUUGAGCCCUAGGGCAGUUCUUGGUAGGUUCUGCUGGGCAGAACAUAUGGGUUAAAUCUCGGUAGAGAGUUUCCCUCAUCCUCUAUCCGUAAGUGUCCUUCCUGGAAUUCUCGGGUGCCAA` is recorded as 0.306.
`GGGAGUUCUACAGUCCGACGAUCAUUUUUUAGGUUAACUGAGCUGCUUUGUGCUCAGAAUCUACAUUCCAGAUUGAGGAUUUAGUGUCUUAGGAAAUUUUUUUAAUUUUUUUUUUUUAAAGAAGAAAAAAAACUGGAAUUCUCGGGUGCCAA` — result for “RBNS enrichment (R)”: 1.33.
`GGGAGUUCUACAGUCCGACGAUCUCUGUAUAAAAGCAGAUCUUUUUAAAAAGAUACUUCUGUAACUUAAGAAACCUGGCAUUUAAAUCAUAUUUUGUCUUUAGGUAAAAGCUUUGGUUUGUGUUCGUGUUUUGUGGAAUUCUCGGGUGCCAA` — result for “RBNS enrichment (R)”: 0.434.
`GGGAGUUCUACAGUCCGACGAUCGUCUUUGGAUUUGGACCUCUUGGGGAAAAGAACGCUGUCAGGAAGGGUUUUAAGGGACACCAGUGGAGGUGUGGCUGAAUCUUCAUGUAUUGUUUGGCUUUCUGAGGGAUUGGAAUUCUCGGGUGCCAA` — result for “RBNS enrichment (R)”: 1.17.
`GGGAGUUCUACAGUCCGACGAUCGCUGGCGACAACCCUCCUUUCUGCCUUUGACACUCAUGUGCUGGGACUACAGGCACACACCAGUACCACUCAGUCUUGUGCAGUGCUGGGGAUGAGCCCAGGGUUUCAUGUGGAAUUCUCGGGUGCCAA` — result for “RBNS enrichment (R)”: 0.404.
`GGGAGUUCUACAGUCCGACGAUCUGGUUUGACUGACAUUAAAGCCAGUGUUAAAAACUAAAGCUUAGCAACAAAUGUUUUACUAUUUUUACAGGAUACUGUAAGGAAUAAUUUGACUUUUAAGAAAUCUUAAAUGGAAUUCUCGGGUGCCAA` — result for “RBNS enrichment (R)”: 0.421.

Set 4 — technique: protein-binding microarray; form: double-stranded DNA, one strand shown; medium: in vitro; concentration: 250 nM; setting: 60-bp whole probe; together with: salmon DNA 0.4 mg/ml; reference: random background probes; direction: higher = stronger binding; shared flanks, not repeated: GCCTAGCAC … GTCTTGATTCGCTTGACGCTGCTG
Target: Interferon regulatory factor 5, full length, phosphomimetic (IRF5, Homo sapiens, UniProt Q13568-2, residues 1-514, K96S/S451D/S453D/S456D/S462D)
For `GACGATTTCGGGGCTGGAGACGTGCTA`, the log fluorescence was 1.27 z-score.
With `GACGATCTCAGTTTCCAGACGTGCTAG` the log fluorescence was 0.201 z-score.
The log fluorescence of `CCACATCTCTGTCCGTGCTCGTGCTAG` is reported as -0.158 z-score.
The log fluorescence of `GACGAACTGAGTATAGAGACGTGCTAG` is reported as -0.402 z-score.
The log fluorescence of `GACGCTATCGGGTTTCGAGACGTGCTA` is reported as 4.73 z-score.
`TTACGTCTCCTTATCCTTTAGTGCTAG` gave a log fluorescence of 0.88 z-score.
`TTAGGACTACTACTGCTTTAGTGCTAG` has a log fluorescence of -0.114 z-score.
`GACGGTCTCGGTATCGGTACGTGCTAG` has a log fluorescence of 3.28 z-score.
With `GACGATCTCAGACTGGAGAAGTGCTAG` the log fluorescence was -0.464 z-score.
`TTACATATCGGGTATCGATTAGTGCTA` gave a log fluorescence of 6.18 z-score.
With `GACGGTTTCGGGTTTCGTGACGTGCTA` the log fluorescence was 7.21 z-score.
`TTAGGTTTTGACTTTCGGTTAGTGCTA` gave a log fluorescence of 9.82 z-score.
The log fluorescence of `TTAGAACTGAGACTAGATTAGTGCTAG` is reported as 0.135 z-score.
`GACGGTATCGGGCATCGGGACGTGCTA` gave a log fluorescence of 1.35 z-score.
The log fluorescence of `TCAAGTTGGACCTCTCAGACTGTGCTA` is reported as -0.432 z-score.
`TGACAGCAGGAACATGGGCTGTGCTAG` gave a log fluorescence of -0.343 z-score.
The log fluorescence of `TTAGGTTTCGTTTTCCTTTAGTGCTAG` is reported as 8.23 z-score.
`CATGAATCAGGCATAGCATGGTGCTAG` gave a log fluorescence of -0.566 z-score.
The log fluorescence of `GACGCTATCGGGACTGGAGACGTGCTA` is reported as 1.65 z-score.

Mixed results
With `PhoQ, residues 284 288 289 292 302 303 SLKLQV` the fold induction was 10.4 (PhoP, residues 12 14 15 18 19 LWHCS (Escherichia coli, UniProt P23836); Sort-seq, item: YFP reporter; E. coli; PhoQ-PhoP variant library, together with: 10 µM Mg2+; reference: high Mg2+ state, higher = stronger signaling).

Some of these lines once more (set 4):
The log fluorescence of `GACGCTATCGGGTTTCGAGACGTGCTA` is reported as 4.73 z-score.
`TTACATATCGGGTATCGATTAGTGCTA` gave a log fluorescence of 6.18 z-score.
The log fluorescence of `CCACATCTCTGTCCGTGCTCGTGCTAG` is reported as -0.158 z-score.
With `GACGATCTCAGTTTCCAGACGTGCTAG` the log fluorescence was 0.201 z-score.
`TTAGGACTACTACTGCTTTAGTGCTAG` has a log fluorescence of -0.114 z-score.
`GACGGTATCGGGCATCGGGACGTGCTA` gave a log fluorescence of 1.35 z-score.
With `GACGATCTCAGACTGGAGAAGTGCTAG` the log fluorescence was -0.464 z-score.
`TTAGGTTTTGACTTTCGGTTAGTGCTA` gave a log fluorescence of 9.82 z-score.
For `GACGATTTCGGGGCTGGAGACGTGCTA`, the log fluorescence was 1.27 z-score.
With `GACGGTTTCGGGTTTCGTGACGTGCTA` the log fluorescence was 7.21 z-score.
`GACGGTCTCGGTATCGGTACGTGCTAG` has a log fluorescence of 3.28 z-score.
